Published values gathered from unrelated publications.
Parts stem from different laboratories: compare values within a part only.

Sample 1 — technique: protein-binding microarray; form: double-stranded DNA, one strand shown; matrix: in vitro; concentration: 940 nM top; notes: 60-bp whole probe; together with: salmon DNA 0.4 mg/ml; reference: random background probes; direction: higher = stronger binding; quantity: fitted relative affinity; constant ends, left off below: GCCTAGCAC … GTCTTGATTCGCTTGACGCTGCTG
Target: Interferon regulatory factor 5, full length, phosphomimetic (IRF5, Homo sapiens, UniProt Q13568-2, residues 1-514, S451D/S453D/S456D/S462D)
TTAGGAGTGCTTCTCCTTTAGTGCTAG: -0.77 z-score
TTAGGTCTCCTACTGGTTTAGTGCTAG: -0.115 z-score
TTAGAACTGAGACTGGATTCGTGCTAG: 0.103 z-score
GACGGAATGGGGACTGGGGACGTGCTA: 0.0707 z-score
CCTAGTTTTACTTTCTATCTGTGCTAG: 2.45 z-score
TTAGATATCAGACTGGAGTAGTGCTAG: -0.359 z-score
GTGGAAATCAGTATGTTCCCGTGCTAG: -0.436 z-score
GACGGTTTCGGATTTCGGGACGTGCTA: 6.72 z-score
GACGATTTCCTTTCCCTGACGTGCTAG: 1.11 z-score
GACGGAATGGGGTATCGGGACGTGCTA: 0.906 z-score
TTAGGTATCCTTCTCTTTTAGTGCTAG: 1.07 z-score
GACGGTTTCCTGCTCCTGACGTGCTAG: 0.76 z-score
TTATGACTGGACTATCGGTTAGTGCTA: 0.202 z-score
TCATGTTTCCTTGTACGACTGTGCTAG: 0.868 z-score
GACGAACTGGGGAATGGAGACGTGCTA: 0.103 z-score
TTAGATCCCAGTCTCGATTAGTGCTAG: 3.1 z-score
GAAGGACTGCTTATCCTGACGTGCTAG: -0.197 z-score
GACGGTTTCGTTCTCGGGACGTGCTAG: 8.3 z-score
TTAGGTTTCTTTTCCCTTTAGTGCTAG: 3.31 z-score

Sample 2 — technique: RNA Bind-n-Seq; form: RNA; matrix: in vitro; concentration: 1 µM; notes: whole 134-nt RNA, ends assumed; together with: 150 mM KCl; reference: input library; direction: higher = stronger binding; quantity: log2 enrichment
Target: Ras GTPase-activating protein-binding protein 1, C-terminal RGG region (G3BP1, Homo sapiens, UniProt Q13283)
Sequence of UniProt Q13283 (whole entry, looked up): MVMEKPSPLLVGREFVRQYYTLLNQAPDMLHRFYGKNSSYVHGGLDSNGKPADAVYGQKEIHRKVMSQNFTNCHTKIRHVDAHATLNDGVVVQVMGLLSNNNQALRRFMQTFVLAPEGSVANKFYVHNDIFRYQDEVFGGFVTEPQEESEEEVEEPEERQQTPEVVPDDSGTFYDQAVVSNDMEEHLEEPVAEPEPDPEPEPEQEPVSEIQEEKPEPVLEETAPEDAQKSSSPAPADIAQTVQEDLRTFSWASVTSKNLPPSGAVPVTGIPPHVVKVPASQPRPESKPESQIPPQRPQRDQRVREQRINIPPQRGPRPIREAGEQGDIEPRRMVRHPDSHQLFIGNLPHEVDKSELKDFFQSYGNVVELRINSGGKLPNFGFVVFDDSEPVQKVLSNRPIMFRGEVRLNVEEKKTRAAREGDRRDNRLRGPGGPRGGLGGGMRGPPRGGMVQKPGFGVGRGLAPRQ
Constant ends, left off below: GGGAGUUCUACAGUCCGACGAUC … UGGAAUUCUCGGGUGUCAAGG
UGGGAGGUGGAUUUUGUUUAUUUUUUUAGCUCAUAUCCAGGGGUGGGAAUUUUUUUUUAAUAUGUGUCAUGAAUAAAGUUGUUUUUGAAA: 3.29
CAAGUCCUGUGCUACACAUCGUAUGUACCGAAUCGGAAAAAGGUUUUUUUGGAGGAAAGUAUUAUGUUACGCCGUUCGGAUCUGCACUUC: -2.17
CUGUGCUACACAUCGUAUGUACCGAAUCGGGGUUUUUUUGGGGUUUUUUUGGGGUUUGGGGAAAGUAUUAUGUUACGCCGUUCGGAUCUG: -0.471
CUCAAGUCCUGUGCUACACAUCGUAUGUACCGAAUCGGGAGGGGAGGGAGGGGAAAGUAUUAUGUUACGCCGUUCGGAUCUGCACUUCCA: 3.41
UGGGAGGUGGAUUUUGUUUAUUUUUUUAGCUCAUUUCCAGCGGUGGGAAUUUUUUUUUAAUAUGUGUCAUGAAUAAAGUUGUUUUUGAAA: 3.86
CCUCAAGUCCUGUGCUACACAUCGUAUGUACCGAAUCGGUGGGUGGGUGGGGAAAGUAUUAUGUUACGCCGUUCGGAUCUGCACUUCCAG: 1.11
CAAGUCCUGUGCUACACAUCGUAUGUACCGAAUCGGGAAAGGGAAAGGAAAGGGGAAAGUAUUAUGUUACGCCGUUCGGAUCUGCACUUC: -0.16
GGUAUUCUGCAAGUACUGUAGAUGUUAUAGAAAUGAUGGAGGAUGAUAAAGUUGAUCUGAAUUUGAUUGUUGCCCUCAUCCGAUACAUUG: -2.05
UCUAUUCAUAAGAACCCCAACACAUCGGAGCCCCAACACCUGUUGGUGAUGAAGGGCGCCCCAGAAAGGAUCCUAGACCGUUGCAGCUCU: -1.11

Sample 3 — technique: RNA Bind-n-Seq; form: RNA; matrix: in vitro; concentration: 365 nM; reference: no-protein control; direction: higher = stronger binding; quantity: RBNS enrichment (R)
Target: RNA binding protein fox-1 homolog 2, RRM domain, GST-SBP tag (RBFOX2, Homo sapiens, UniProt O43251-10, residues 100-194)
Notes: natural RNA segment, single round, ends assumed
Constant ends, left off below: GGGAGUUCUACAGUCCGACGAUC … UGGAAUUCUCGGGUGCCAA
Residues (chain): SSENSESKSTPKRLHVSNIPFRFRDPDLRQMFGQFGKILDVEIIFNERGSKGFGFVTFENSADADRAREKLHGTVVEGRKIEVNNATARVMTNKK
CCCUCAAUAGUUGCCUUUUAGUGCUGUAAUAGUUAAAUCCUACAGCAUAAUCAAUAACUCGCAUAUGAAGUAAAAAGGAAUACUGUGAAAGGGGAGUACUCUUGUACAGC: 0.328
ACUGGGAGCUUGCACUAUGCAGCUCCAGUUUCCUGCAGUGAUCAGGGUCCUGCAAGCAGUGGGGAAGGGGGCCAAGGUAUUGGAGGACUCCCUCCCAGCUUUGGAAGCCU: 0.974
CUGCAAAGGAUUAUGGGAAACUCCAGGACUCUUCUACCCAGCUCCUGCCUGCAAAGGUUCCCUGCAUGCCUCUUCCCCUGAGCCCAGGGGUACCUGGUCCCCAUUUCCUA: 9.74
CUGUGGAUUGUUUUUUACUUUUCCUUUUAAACCGGUUCGUAUAUAUUUUUCUUCGCUGUUACGAAUUUACAGCAGCAUUUGUACAUGUAAAAUUAAAGGCUAUUUUCUGG: 2.31
AUUAACCCCACAGAACUAGCAUUUUCUAAAGUAUGUAAUCUGUUAAUUUUUAACCAGAUAAGGCUUUCUAUGCAUCCACAGGUGCCUUUGUUUUAACUGUGGAUUUAUUG: 0.759
GACACGGCCUCCUGUUGGAGUCCCAUUUUCUCCAUCAGGGCACGUGGGCGGCUUCCUCAAGCCCGGAGGAGCUCCCAGGCGCACAGGGGCCGCCGGUAACAGGGGCCGCC: 0.525
UCUGCUGCAGCUUGUGUAAAAGUGGGCAGUACACAAGUACGUCCCAAAGCCUGUGAGCAGUAUACGUGGAUGCUCACCCAUGAGAAGGAGCACACACGCCUCAUUCUCUG: 0.297
AAGGUAAACGCAGAUUGUAUCUUUUUUAAUGGUACGGCAUAAAAAGUAACCCUCAAGUGAAGUGUCUCUAUACUGUUUUAUAGAGUACUUUAACAUGAAUAGAUACCUUG: 0.35

Sample 4 — technique: protein binding microarray; form: double-stranded DNA, one strand shown; matrix: in vitro; concentration: not given; reference: not given; direction: higher = stronger binding; quantity: E-score
Target: Histone acetyltransferase KAT6A, both winged helices, GST fusion (KAT6A, Homo sapiens, UniProt Q92794, residues 1-181)
Notes: 8-mer, flanks averaged, mean of 2 arrays, mostly near background
Target sequence (chain): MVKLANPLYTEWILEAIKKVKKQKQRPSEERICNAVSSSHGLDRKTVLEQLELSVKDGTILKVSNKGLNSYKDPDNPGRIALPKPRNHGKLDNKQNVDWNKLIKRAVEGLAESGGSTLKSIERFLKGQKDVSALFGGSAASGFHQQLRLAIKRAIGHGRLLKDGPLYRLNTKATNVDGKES
AAGACGAG: -0.158
ATAAGAAT: -0.0431
GGGATAGA: -0.0636
CTATAAGA: -0.192
GGCACTTA: 0.0518
ATTCTTGA: -0.072
CCCGTGAG: 0.198
ACTTTCAC: -0.0125
ATCGGCGA: 0.23
ATATCGGA: 0.0188
TCTCACCA: -0.082
AAGATGGA: 0.0437
CCAGAGGG: -0.199
AACACCTG: -0.141
AACTCTTC: -0.0603
TGCTTCCA: -0.307
ATGCACCG: -0.0348

Repeated from above (sample 3):
ACUGGGAGCUUGCACUAUGCAGCUCCAGUUUCCUGCAGUGAUCAGGGUCCUGCAAGCAGUGGGGAAGGGGGCCAAGGUAUUGGAGGACUCCCUCCCAGCUUUGGAAGCCU: 0.974
CUGCAAAGGAUUAUGGGAAACUCCAGGACUCUUCUACCCAGCUCCUGCCUGCAAAGGUUCCCUGCAUGCCUCUUCCCCUGAGCCCAGGGGUACCUGGUCCCCAUUUCCUA: 9.74
CUGUGGAUUGUUUUUUACUUUUCCUUUUAAACCGGUUCGUAUAUAUUUUUCUUCGCUGUUACGAAUUUACAGCAGCAUUUGUACAUGUAAAAUUAAAGGCUAUUUUCUGG: 2.31
AUUAACCCCACAGAACUAGCAUUUUCUAAAGUAUGUAAUCUGUUAAUUUUUAACCAGAUAAGGCUUUCUAUGCAUCCACAGGUGCCUUUGUUUUAACUGUGGAUUUAUUG: 0.759
GACACGGCCUCCUGUUGGAGUCCCAUUUUCUCCAUCAGGGCACGUGGGCGGCUUCCUCAAGCCCGGAGGAGCUCCCAGGCGCACAGGGGCCGCCGGUAACAGGGGCCGCC: 0.525
UCUGCUGCAGCUUGUGUAAAAGUGGGCAGUACACAAGUACGUCCCAAAGCCUGUGAGCAGUAUACGUGGAUGCUCACCCAUGAGAAGGAGCACACACGCCUCAUUCUCUG: 0.297
